# Assay results collected from several papers.
# Compare with care: the assays were run in different laboratories. Numbers after ± are the reported error.
SMILES,assay,system,setting,quantity,result
CC(C)[C@]12O[C@H]1[C@@H]1O[C@]13[C@]1(O[C@H]1C[C@H]1c4c(C(=O)c5ccccc5)oc(OC(=O)c5ccccc5)c4CC[C@@]13C)[C@@H]2O,,"Sprague Dawley rat, male","intravenous, single injection",MTD,4.5 mg/kg
COc1cc(NC(=O)C(=O)c2c(C)n(Cc3ccc(Cl)cc3)c3ccc(C)cc23)ccn1,,"cynomolgus monkey, both sexes, urine","oral, 1000 mg/kg once daily, day 5, up to 24 h",number of urine metabolites,17
COc1ccc([N+]#[C][Re]2(=[C]=O)(=[C]=O)(=[C]=O)[N]3C(C)=CC=c4ccc5c(c43)[N]2C(C)=CC=5)cc1.O=S(=O)([O-])C(F)(F)F,,PBS,"10 µM, air-equilibrated",luminescence lifetime,1 µs
[11CH3]n1c(=O)n(CCCO)c(=O)c2c1nc(Oc1cccc(OC(F)(F)F)c1)n2Cc1ccc(Cl)cc1,ex vivo biodistribution,"Sprague Dawley rat, blood",30 min post injection,tracer uptake,0.2 ± 0.01 %ID/g
O=C(NCCNCCO)c1cn(Cc2ccccc2)c2cc(OCc3ccc(C(F)(F)F)cc3)c(Cl)cc2c1=O,metabolic stability,"male CD-1 mouse, liver microsomes",1 µM,microsomal CLint,< 11.6 µL/min/mg
CC(C)C[C@H](NC(=O)[C@H](CCCNC(=N)N)NC(=O)[C@H](CCC(=O)O)NC(=O)CNC(=O)[C@H](CCCCN)NC(=O)[C@@H](NC(=O)[C@H](Cc1ccccc1)NC(=O)[C@H](Cc1c[nH]c2ccccc12)NC(=O)[C@H](CCCCN)NC(=O)[C@H](CCCCN)NC(=O)[C@H](Cc1c[nH]c2ccccc12)NC(=O)CN)[C@@H](C)O)C(=O)N[C@@H](CO)C(=O)N[C@@H](CCC(N)=O)C(=O)N[C@@H](CCCNC(=N)N)C(=O)N[C@@H](Cc1c[nH]cn1)C(=O)N[C@@H](Cc1ccccc1)C(=O)N[C@@H](C)C(=O)O,,zebrafish embryos,"1, 5, 25 µM, 4, 28, 52 hpf",toxicity,not toxic
CC[C@H](C)C(=O)N1CCC(NC(=O)Nc2ccc(OC(F)(F)F)c(F)c2)CC1,,healthy volunteers,"oral, 24 mg single dose",subjects with UTI TEAE,0%
CCCCCCCCCCCCC(=O)O.O=C1CCCC2C3CCCN4CCCC(CN12)C34 (stereo not drawn),shake-flask,simulated body fluid,"pH 7.4, 25 °C",log octanol-water partition coefficient,0.93
O=C([O-])CN(CCN(CC(=O)[O-])CC(=O)[O-])CCN(CC(=O)[O-])CC(=O)[O-].[177Lu+3],,human serum,"24 h, 37 °C, added: 177Lu",radiometal bound to chelator,82%
CC(C)(CCCC/C=C/CCCCCC(C)(C)C(=O)O)C(=O)O,,mice plasma,,plasma protein binding,> 99.8%
C[C@@H](O)[C@@H]1NC(=O)[C@H](CCCCN)NC(=O)CCC(=O)NCCCC[C@@H](C(=O)NCC(=O)NCC(=O)N[C@@H](Cc2ccc(O)cc2)C(=O)NCC(=O)N[C@@H](CCCNC(=N)N)C(=O)N[C@@H](CCCCN)C(=O)N[C@@H](CCCCN)C(=O)N[C@@H](CCCNC(=N)N)C(=O)N[C@@H](CCCNC(=N)N)C(=O)N[C@@H](CCC(N)=O)C(=O)N[C@@H](CCCNC(=N)N)C(=O)N[C@@H](CCCNC(=N)N)C(=O)N[C@@H](CCCNC(=N)N)C(N)=O)NC(=O)[C@H](CCCCN)NC(=O)[C@H](CCC(=O)O)NC(=O)[C@H](CC(=O)O)NC(=O)CNC1=O,,PBS,"up to 24 h, pH 7.4, 80 °C",HPLC purity,100%
C[C@@H]1CC[C@H]2[C@@H](C)CO[C@@H]3O[C@@]4(C)CC[C@@H]1[C@]32OO4,,"male Sprague-Dawley rat, plasma","intravenous, 5 mg/kg",MRT(0-t),19.4 min
O=P1(NCCCl)NCCCO1 (stereo not drawn),,"rat, plasma","intravenous, 10 mg/kg CP, added: ketoconazole 0 mg/kg",Tmax,75 ± 25.1 min
COC(=O)C[C@H](NC(=O)[C@H](C)NC(=O)[C@@H](NC(=O)[C@H](CC(=O)OC)NC(=O)[C@@H](NC(=O)c1ccc2ccccc2n1)C(C)C)C(C)C)C(=O)COc1c(F)cccc1F,,"rat pups, arterial blood","1 mg/kg, 1 h",bicarbonate level,26.3 ± 0.76 mM
CC[C@@H](C)[C@@H](NC(=O)[C@@H](C)NC(=O)[C@H](NC(=O)[C@@H](CC(=O)O)NC(=O)[C@@H](CCCCN)NC(=O)[C@@H](CO)NC(=O)[C@H](NC(=O)[C@@H](CC(N)=O)NC(=O)[C@@H](C)NC(=O)[C@H](NC(=O)[C@@H](CCC(=O)O)NC(=O)[C@@H](CCCCN)NC(=O)[C@H](NC(=O)[C@H](NC(=O)[C@@H](Cc1c[nH]cn1)NC(=O)[C@@H](CCCCN)NC(=O)[C@H](NC(=O)[C@@H](CCCCN)NC(=O)[C@@H](CCCCN)NC(=O)[C@H](NC(=O)[C@@H](CC(C)C)NC(=O)[C@@H](CCCCN)NC(=O)[C@@H](CC(N)=O)NC(=O)[C@@H](Cc1ccccc1)NC(=O)[C@@H](CCCNC(=N)N)NC(=O)[C@@H](CCCCN)NC(=O)[C@@H](CCCNC(=N)N)NC(=O)[C@@H](Cc1ccccc1)NC(=O)CN)C(C)C)C(C)C)[C@H](C)O)[C@H](C)CC)[C@H](C)O)C(C)C)C(C)C)C(=O)N[C@@H](C(=O)N[C@H](C)C(=O)NCC(=O)N[C@H](CO)C(=O)NCC(=O)N[C@@H](C(=O)N[C@H](C)C(=O)N[C@@H](C(=O)NCC(=O)N[C@H](C)C(=O)N[C@H](C)C(=O)N[C@H](CCSC)C(N)=O)C(C)C)C(C)C)C(C)C,,human erythrocytes,,minimal haemolytic concentration,> 1020 mg/L
COC(=O)C[C@](O)(CCCC(C)(C)OC(C)=O)C(=O)O[C@@H]1C(OC)=C[C@]23CCCN2CCc2cc4c(cc2[C@H]13)OCO4,,"CD1 mouse, kidney","subcutaneous, 1 mg/kg, 2 h",tissue concentration,191 ng/mL
CC(C)[C@H](NC(=O)CNC(=O)[C@H](CCC(N)=O)NC(=O)[C@H](C)N)C(=O)O,,human,1 mg/kg single dose,subjects with mild adverse events,16.7%
O=C(NCCCCCn1ccc2ccccc21)Oc1ccccc1,,rat liver S9 fraction,"30 min, added: NADPH",parent remaining,52 ± 2%
CCCCCCCC/C=C\CCCCCCCCOP(O)(O)=S.N,,"mouse, male, nonirradiated","sc, dose not given",AUC(0-inf),1520 ng·h/mL
CC(=O)OC1O[C@@H]2O[C@@]3(C)CC[C@H]4[C@H](C)CCC([C@H]1C)[C@@]24OO3 (stereo partly drawn),,Tg(fli1:EGFP) zebrafish embryos,"0.1 µg/mL, up to 48 hpf",dead embryos,1 count
CC(C)[C@H](NC(=O)[C@H](Cc1c[nH]c2ccccc12)NC(=O)[C@H](Cc1ccccc1)NC(=O)[C@@H](NC(=O)[C@@H](NC(=O)[C@H](CCCCN)NC(=O)[C@@H](N)CCCCN)C(C)C)C(C)C)C(=O)N[C@@H](CCCCN)C(=O)N[C@@H](Cc1ccccc1)C(=O)N[C@@H](CCCCN)C(N)=O,"ELISA, measured: IL-4","mouse, blood","intravenous, 500 µg/kg, 5 days",cytokine level,13.1 ± 1.75 pg/mL

# A few entries again:
SMILES,assay,system,setting,quantity,result
COC(=O)C[C@](O)(CCCC(C)(C)OC(C)=O)C(=O)O[C@@H]1C(OC)=C[C@]23CCCN2CCc2cc4c(cc2[C@H]13)OCO4,,"CD1 mouse, kidney","subcutaneous, 1 mg/kg, 2 h",tissue concentration,191 ng/mL
CC(C)[C@H](NC(=O)CNC(=O)[C@H](CCC(N)=O)NC(=O)[C@H](C)N)C(=O)O,,human,1 mg/kg single dose,subjects with mild adverse events,16.7%
O=C(NCCCCCn1ccc2ccccc21)Oc1ccccc1,,rat liver S9 fraction,"30 min, added: NADPH",parent remaining,52 ± 2%
